Experimental data from different studies.
Every numbered part comes from another study and shows a few of its results, in no order.
Sequence of UniProt Q8IYT8 (whole entry, looked up): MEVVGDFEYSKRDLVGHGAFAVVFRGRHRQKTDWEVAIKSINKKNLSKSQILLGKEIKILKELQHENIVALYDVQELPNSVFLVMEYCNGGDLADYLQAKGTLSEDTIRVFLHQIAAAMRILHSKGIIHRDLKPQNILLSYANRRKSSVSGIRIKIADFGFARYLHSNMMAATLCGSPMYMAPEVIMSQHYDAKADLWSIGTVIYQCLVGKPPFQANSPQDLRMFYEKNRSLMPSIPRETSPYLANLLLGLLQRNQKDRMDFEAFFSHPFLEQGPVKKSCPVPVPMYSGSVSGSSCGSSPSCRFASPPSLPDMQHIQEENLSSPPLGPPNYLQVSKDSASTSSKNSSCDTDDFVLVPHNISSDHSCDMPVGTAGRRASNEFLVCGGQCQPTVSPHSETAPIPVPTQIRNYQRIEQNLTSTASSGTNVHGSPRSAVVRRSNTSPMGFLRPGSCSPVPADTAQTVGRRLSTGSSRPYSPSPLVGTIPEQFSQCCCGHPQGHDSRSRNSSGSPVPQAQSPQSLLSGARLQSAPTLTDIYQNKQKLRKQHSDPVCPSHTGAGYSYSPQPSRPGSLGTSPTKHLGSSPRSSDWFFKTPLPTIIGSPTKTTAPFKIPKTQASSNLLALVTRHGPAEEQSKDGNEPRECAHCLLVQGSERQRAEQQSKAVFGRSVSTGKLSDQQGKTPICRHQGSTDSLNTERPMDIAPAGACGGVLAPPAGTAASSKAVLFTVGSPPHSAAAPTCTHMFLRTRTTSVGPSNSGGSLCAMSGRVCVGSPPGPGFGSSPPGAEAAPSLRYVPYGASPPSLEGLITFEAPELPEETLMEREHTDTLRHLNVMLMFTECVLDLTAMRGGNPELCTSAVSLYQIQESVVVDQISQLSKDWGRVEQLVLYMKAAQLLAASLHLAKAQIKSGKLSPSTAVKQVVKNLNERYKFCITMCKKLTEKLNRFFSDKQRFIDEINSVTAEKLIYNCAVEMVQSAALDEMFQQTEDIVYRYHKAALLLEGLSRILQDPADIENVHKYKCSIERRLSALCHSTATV
Sequence of UniProt P42684 (whole entry, looked up): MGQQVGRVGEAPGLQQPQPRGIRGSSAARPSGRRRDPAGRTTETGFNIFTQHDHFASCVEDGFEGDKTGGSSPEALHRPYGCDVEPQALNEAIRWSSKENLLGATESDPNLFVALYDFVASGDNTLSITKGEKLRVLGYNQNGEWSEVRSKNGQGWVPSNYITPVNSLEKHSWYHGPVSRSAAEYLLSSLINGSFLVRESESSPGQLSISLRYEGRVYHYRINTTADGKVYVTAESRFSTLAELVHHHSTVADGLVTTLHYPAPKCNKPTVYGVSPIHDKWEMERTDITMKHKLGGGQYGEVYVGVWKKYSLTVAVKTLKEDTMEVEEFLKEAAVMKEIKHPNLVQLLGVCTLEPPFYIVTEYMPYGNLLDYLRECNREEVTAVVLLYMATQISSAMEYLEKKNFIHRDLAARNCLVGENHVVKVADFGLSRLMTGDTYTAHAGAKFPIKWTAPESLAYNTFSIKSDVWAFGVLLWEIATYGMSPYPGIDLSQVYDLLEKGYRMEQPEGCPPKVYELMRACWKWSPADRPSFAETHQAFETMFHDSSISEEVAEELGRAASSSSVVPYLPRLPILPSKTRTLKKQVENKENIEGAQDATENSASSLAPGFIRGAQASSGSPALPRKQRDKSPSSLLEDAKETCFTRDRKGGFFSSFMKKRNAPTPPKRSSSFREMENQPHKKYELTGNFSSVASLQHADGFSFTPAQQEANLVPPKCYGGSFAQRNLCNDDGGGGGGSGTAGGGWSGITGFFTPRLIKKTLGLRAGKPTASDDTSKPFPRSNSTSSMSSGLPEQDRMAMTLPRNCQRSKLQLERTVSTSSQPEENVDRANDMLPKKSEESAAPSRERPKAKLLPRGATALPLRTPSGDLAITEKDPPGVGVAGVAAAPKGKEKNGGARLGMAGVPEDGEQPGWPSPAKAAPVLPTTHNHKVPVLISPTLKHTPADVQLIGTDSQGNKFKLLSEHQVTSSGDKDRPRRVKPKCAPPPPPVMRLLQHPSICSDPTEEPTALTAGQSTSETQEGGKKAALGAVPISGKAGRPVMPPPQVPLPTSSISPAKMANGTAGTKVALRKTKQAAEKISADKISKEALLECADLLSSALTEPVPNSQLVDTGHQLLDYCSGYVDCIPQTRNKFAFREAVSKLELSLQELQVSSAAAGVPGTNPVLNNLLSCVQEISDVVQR
Sequence of UniProt Q04912 (whole entry, looked up): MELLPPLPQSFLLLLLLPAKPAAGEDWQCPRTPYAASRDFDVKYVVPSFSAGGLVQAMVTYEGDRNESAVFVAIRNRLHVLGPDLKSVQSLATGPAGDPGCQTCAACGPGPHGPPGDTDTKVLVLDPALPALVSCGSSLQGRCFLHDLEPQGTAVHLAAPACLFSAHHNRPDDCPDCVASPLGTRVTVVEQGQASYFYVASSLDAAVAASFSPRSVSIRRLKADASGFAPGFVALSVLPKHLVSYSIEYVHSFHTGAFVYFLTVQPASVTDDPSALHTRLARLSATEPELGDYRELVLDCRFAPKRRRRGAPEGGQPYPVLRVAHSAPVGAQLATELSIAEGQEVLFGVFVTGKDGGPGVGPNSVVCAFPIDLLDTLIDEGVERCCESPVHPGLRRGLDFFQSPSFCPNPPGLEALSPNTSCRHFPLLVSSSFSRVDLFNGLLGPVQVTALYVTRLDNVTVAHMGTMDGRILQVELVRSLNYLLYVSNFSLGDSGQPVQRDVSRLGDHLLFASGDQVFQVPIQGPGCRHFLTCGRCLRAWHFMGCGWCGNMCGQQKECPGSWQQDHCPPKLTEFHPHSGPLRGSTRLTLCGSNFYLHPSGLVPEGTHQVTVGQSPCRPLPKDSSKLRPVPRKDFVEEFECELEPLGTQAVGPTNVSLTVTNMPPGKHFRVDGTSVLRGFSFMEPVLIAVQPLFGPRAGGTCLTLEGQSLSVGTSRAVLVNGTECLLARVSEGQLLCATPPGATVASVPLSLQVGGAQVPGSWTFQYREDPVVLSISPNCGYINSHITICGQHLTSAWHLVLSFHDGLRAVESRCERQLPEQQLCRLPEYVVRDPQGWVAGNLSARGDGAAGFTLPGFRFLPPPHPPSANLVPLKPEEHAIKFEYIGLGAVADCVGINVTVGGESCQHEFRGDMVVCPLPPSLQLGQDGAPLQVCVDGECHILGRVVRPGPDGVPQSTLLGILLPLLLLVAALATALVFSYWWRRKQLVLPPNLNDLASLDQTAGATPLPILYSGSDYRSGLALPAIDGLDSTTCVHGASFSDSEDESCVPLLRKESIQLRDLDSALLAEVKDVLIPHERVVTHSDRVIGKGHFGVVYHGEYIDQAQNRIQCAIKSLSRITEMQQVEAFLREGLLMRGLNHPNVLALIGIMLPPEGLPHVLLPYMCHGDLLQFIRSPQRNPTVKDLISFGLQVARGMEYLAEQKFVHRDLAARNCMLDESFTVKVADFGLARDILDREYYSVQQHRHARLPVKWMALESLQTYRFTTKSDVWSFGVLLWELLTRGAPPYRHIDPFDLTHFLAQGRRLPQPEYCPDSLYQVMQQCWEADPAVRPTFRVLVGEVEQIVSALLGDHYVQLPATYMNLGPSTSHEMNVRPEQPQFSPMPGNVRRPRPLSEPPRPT
Sequence of UniProt Q99558 (whole entry, looked up): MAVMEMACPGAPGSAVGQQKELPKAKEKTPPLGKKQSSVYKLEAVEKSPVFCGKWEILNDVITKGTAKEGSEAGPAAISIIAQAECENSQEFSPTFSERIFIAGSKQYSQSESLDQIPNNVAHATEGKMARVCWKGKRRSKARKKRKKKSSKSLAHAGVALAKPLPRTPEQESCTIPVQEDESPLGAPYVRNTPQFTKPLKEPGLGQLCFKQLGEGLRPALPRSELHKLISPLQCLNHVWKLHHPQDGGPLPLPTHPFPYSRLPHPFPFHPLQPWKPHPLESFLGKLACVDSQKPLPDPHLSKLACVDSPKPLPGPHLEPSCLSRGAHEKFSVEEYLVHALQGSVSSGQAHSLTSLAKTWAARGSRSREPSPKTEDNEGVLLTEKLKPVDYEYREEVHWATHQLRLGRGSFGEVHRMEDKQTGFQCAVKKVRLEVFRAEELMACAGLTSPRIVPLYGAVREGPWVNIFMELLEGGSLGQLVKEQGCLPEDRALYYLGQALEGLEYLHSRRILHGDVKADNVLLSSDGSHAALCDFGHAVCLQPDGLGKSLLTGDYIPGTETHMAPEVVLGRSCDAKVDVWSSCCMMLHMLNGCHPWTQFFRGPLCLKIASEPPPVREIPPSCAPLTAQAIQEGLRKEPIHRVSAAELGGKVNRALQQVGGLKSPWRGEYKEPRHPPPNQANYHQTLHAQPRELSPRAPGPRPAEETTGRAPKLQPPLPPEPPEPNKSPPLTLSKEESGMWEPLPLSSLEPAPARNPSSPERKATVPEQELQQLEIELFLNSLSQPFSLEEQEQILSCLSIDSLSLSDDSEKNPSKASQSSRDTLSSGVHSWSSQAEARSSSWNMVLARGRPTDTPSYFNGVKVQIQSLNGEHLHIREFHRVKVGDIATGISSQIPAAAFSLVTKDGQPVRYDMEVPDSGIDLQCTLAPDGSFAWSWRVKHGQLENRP

Study 1
Target: Interferon regulatory factor 7, full length, phosphomimetic (IRF7, Homo sapiens, UniProt Q92985, residues 1-503, S471D/S472D/S475D/S476D/S477D/S483D/S484D/S487D)
Sequence of UniProt Q92985 (whole entry, unmodified, looked up): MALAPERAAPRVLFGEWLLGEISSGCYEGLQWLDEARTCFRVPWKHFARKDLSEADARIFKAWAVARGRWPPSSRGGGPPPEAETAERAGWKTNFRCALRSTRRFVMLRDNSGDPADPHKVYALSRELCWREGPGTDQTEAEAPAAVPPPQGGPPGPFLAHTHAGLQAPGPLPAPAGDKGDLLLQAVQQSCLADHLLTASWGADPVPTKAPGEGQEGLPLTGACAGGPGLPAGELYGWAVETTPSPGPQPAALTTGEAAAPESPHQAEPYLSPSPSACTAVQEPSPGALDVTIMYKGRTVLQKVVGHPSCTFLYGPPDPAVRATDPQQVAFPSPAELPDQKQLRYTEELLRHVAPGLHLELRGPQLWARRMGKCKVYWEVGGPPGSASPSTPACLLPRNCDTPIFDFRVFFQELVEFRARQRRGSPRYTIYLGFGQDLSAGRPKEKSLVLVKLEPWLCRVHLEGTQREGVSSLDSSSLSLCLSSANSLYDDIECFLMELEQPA
Technique: protein-binding microarray
Form: double-stranded DNA, one strand shown
Medium: in vitro
Concentration: 2200 nM top
Notes: 60-bp whole probe
With: salmon DNA 0.4 mg/ml
Baseline: random background probes
Direction: higher = stronger binding
All sequences stand within: GCCTAGCAC … GTCTTGATTCGCTTGACGCTGCTG
Sequence	fitted relative affinity
GGATGTGTCTTAAATAGGGGAGTGCTA	-0.316 z-score
GACGGTATCTTTATCCTGACGTGCTAG	0.684 z-score
TTAGAACTGAGTCTCGATGAGTGCTAG	-0.504 z-score
TTACGTATCGACTATCGGTTAGTGCTA	1.51 z-score
ACCATTTTTTTTCACTATTGGTGCTAG	1.78 z-score
GCCGATTTCAGTTCCGAGACGTGCTAG	2.53 z-score
TTAGATTTCGGGACTGCATTAGTGCTA	1.16 z-score
TGCTGTGTGCATCTATCTTAGTGCTAG	0.226 z-score

Study 2
SMILES: CC1=C(C#N)[C@@H](c2ccc3[nH]nc(C)c3c2)C(C#N)=C(c2ccc(Cl)cc2)N1
Observed: cell-free assay
Technique: competition with immobilised ligand
Concentration: 1 µM
target	remaining binding [%]
EGFR (Homo sapiens, UniProt P00533, G719C)	100
PKMYT1 (Homo sapiens, UniProt Q99640)	100
PTK6 (Homo sapiens, UniProt Q13882)	100
PRKACB (Homo sapiens, UniProt P22694)	81.5

Study 3
Target: Hepatocyte nuclear factor 3-alpha (Foxa1, Mus musculus, UniProt P35582, residues 1-468, full length assumed)
Technique: EMSA with sequencing
Form: double-stranded DNA, one strand shown
Medium: in vitro
Concentration: 10 and 20 nM
Notes: whole designed probe, mean of two concentrations, ends assumed
Baseline: negative control set to 0
Direction: higher = stronger binding
All sequences stand within: GTGAGCGGTGCCCATTGATGGGGAAC … TTTCACTGGGATCGTGGGGAC
Residues (chain): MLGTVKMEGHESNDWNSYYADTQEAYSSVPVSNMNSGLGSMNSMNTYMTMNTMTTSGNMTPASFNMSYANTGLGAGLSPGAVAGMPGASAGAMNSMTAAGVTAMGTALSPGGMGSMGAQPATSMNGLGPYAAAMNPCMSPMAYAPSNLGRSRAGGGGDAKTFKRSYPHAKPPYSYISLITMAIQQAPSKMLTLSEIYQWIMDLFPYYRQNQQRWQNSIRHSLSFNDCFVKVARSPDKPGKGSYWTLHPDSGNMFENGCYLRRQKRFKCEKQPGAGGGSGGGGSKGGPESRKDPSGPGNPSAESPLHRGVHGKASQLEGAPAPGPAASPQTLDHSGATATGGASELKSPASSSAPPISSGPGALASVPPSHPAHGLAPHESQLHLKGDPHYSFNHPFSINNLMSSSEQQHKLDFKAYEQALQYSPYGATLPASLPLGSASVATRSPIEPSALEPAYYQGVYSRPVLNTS
Sequence	normalised bound fraction
CTAGCTCCAGTCTTAGCATGGCAACTTCTTCCTGCAACGTACTATTTTCATGCAAGAAGTCTTTTTCTTTCTTATAACTAAGAGAAAGCTAAGTAAACAAAGGGAACTTTTAGTTAGCACTCAATAGATTGACATATCATGATTTCTTCTGAAATTAAAAAATAACGTGTATTTGTATAATGAAAGAATCCAC	0.501 ratio
ATCTTCCCCCTCTTCCTTGCCCCACCAGCTCACCTTCCCGGGTTATTTGCAGATAGGAAAATAAATAAAGCCGGCATTCGTTAACCCTCTTCTGGCGCAAACTGCTGTTTGCGTATTCGAGATCATGGTCCTTTGGCGACGCCAGGCTCCGGGAGAGCAAAGCACCGTGTCAGGGCCATGATCCGGGGTGGCC	0.351 ratio
AGGTGAATTGGCTGCTTCCATCCTGGCTTGGAACTTCAGACATAGAAGCCTTGGGACTTTCTCAGGACTTCTGACTCATGCTCTCCAGATGCTTGTTTGCTGAATCTCTGTGGATCACGTGACCTTAGCCAGGGATGTTGGTGAAACTGTGTGTTGGTCTAGGTACCTAGCCCATGCTAGGTGCTCATCGAAT	0.0579 ratio
GTTATGTTTTTATACTACAAATTGCGGTAGGACTATGCTCAGAGCTATTGAGAGGAAATCAAGGAAAGACTCTGAACCTAAAGCTATTTTTTGCTGTTTACTTAGCCAACCAGTTGCCTCTTACCATCTCCCATTCAAACTAAAGTAAAATGTACTCCAAAATTATTCAAACTGCCTCTCTGTCTACATCCCT	0.331 ratio
ATCTTCCCCCTCTTCCTTGCCCCACCAGCTCACCTTCCCGGGTTATTTGCAGATAGGAAAATAAATAAAGCCGGCATTCGTTAACGCAGTTCTGGCGCAAACTGCTGTTTGCTCTGGATGAATCATGGTCCTTTGGCGAGGCGTGGCTCCGGGAGAGCAAAGCACCGTGTCAGGGCCATGATCCGGGCTCGCC	0.343 ratio
GGGTCCCGGGCGGCGGCAGGAATGCAGGAATGCGCACAGGCTGTGGGCGGCCAGGAGGGAGTCGGCGGAAGTGCCGGCGCCTGCCCCAGTCTTTGTGTACCCTGTCCAACACCTCCCCCCGCCAGCGCGGAAGGCCGGGCTACCTGCGCGCCTGGCAGCGCCTGGCAGCCGGCTGGGTGGGGCGCAGGGGAGC	0.00193 ratio
TCGGCCAGCCTGGCTTCTGCGCCCCGCCAGGAGGTCGCGGAGCGGAGCGCGGCCAGGAAGTGAGCTGAGAGTGACAGCTCCCCCCACGCGAGAATAAACAAACATCCACACAATGACTCATTCCTGGCTCTTCTTTCTTTCGGGAGGAGGGGAGAAAGGAGCGGGAGGGCGGGCGGGCAGGGGAGAGGCAGGC	0.363 ratio
ACATTTGGGTCATTCCACCCTTTGACTAATGTGATCAGTGCTGCTCTGAACATTCGTGTATGAGTATTTGAGGATCGTTTTCACTTCTCTTGGGTAATCTTCTAGGAGTGAAATTGCTGAGTCATAGGGCAGTTTTATGTGTAACTACTTTTTGAGGAGTGCAGTGGCATAATCTTGCCTCACTGAAACCTCC	-0.048 ratio

Study 4
Compound: COc1ccc(S(=O)(=O)N(CCO)c2ccccc2CN(C)CC=Cc2ccc(Cl)cc2)cc1
Observed: enzyme activity
Mode: inhibitor
Concentration: 0.5 µM
Baseline: control
target	remaining activity [%]
ABL2 (Homo sapiens, UniProt P42684)	97.4
ULK3 (Homo sapiens, UniProt Q6PHR2)	106
CSNK1G3 (Homo sapiens, UniProt Q9Y6M4)	98.3
GRK7 (Homo sapiens, UniProt Q8WTQ7)	114
MST1R (Homo sapiens, UniProt Q04912)	95.4
MAP3K5 (Homo sapiens, UniProt Q99683)	93.7
TAOK2 (Homo sapiens, UniProt Q9UL54)	90.9
FGFR3 (Homo sapiens, UniProt P22607)	70.1
ULK2 (Homo sapiens, UniProt Q8IYT8)	102
MAPK3 (Homo sapiens, UniProt P27361)	95.1
NEK6 (Homo sapiens, UniProt Q9HC98)	103
MAP3K14 (Homo sapiens, UniProt Q99558)	90.8
FRK (Homo sapiens, UniProt P42685)	106
MAP2K2 (Homo sapiens, UniProt P36507)	100

Some of these lines once more (study 3):
Sequence	normalised bound fraction
AGGTGAATTGGCTGCTTCCATCCTGGCTTGGAACTTCAGACATAGAAGCCTTGGGACTTTCTCAGGACTTCTGACTCATGCTCTCCAGATGCTTGTTTGCTGAATCTCTGTGGATCACGTGACCTTAGCCAGGGATGTTGGTGAAACTGTGTGTTGGTCTAGGTACCTAGCCCATGCTAGGTGCTCATCGAAT	0.0579 ratio
ATCTTCCCCCTCTTCCTTGCCCCACCAGCTCACCTTCCCGGGTTATTTGCAGATAGGAAAATAAATAAAGCCGGCATTCGTTAACGCAGTTCTGGCGCAAACTGCTGTTTGCTCTGGATGAATCATGGTCCTTTGGCGAGGCGTGGCTCCGGGAGAGCAAAGCACCGTGTCAGGGCCATGATCCGGGCTCGCC	0.343 ratio
TCGGCCAGCCTGGCTTCTGCGCCCCGCCAGGAGGTCGCGGAGCGGAGCGCGGCCAGGAAGTGAGCTGAGAGTGACAGCTCCCCCCACGCGAGAATAAACAAACATCCACACAATGACTCATTCCTGGCTCTTCTTTCTTTCGGGAGGAGGGGAGAAAGGAGCGGGAGGGCGGGCGGGCAGGGGAGAGGCAGGC	0.363 ratio
ATCTTCCCCCTCTTCCTTGCCCCACCAGCTCACCTTCCCGGGTTATTTGCAGATAGGAAAATAAATAAAGCCGGCATTCGTTAACCCTCTTCTGGCGCAAACTGCTGTTTGCGTATTCGAGATCATGGTCCTTTGGCGACGCCAGGCTCCGGGAGAGCAAAGCACCGTGTCAGGGCCATGATCCGGGGTGGCC	0.351 ratio
ACATTTGGGTCATTCCACCCTTTGACTAATGTGATCAGTGCTGCTCTGAACATTCGTGTATGAGTATTTGAGGATCGTTTTCACTTCTCTTGGGTAATCTTCTAGGAGTGAAATTGCTGAGTCATAGGGCAGTTTTATGTGTAACTACTTTTTGAGGAGTGCAGTGGCATAATCTTGCCTCACTGAAACCTCC	-0.048 ratio
